{"data": "Measurements gathered from unrelated publications", "note": "A part holds a random share of what one study measured.", "UniProt P29322, sequence (whole entry, looked up)": "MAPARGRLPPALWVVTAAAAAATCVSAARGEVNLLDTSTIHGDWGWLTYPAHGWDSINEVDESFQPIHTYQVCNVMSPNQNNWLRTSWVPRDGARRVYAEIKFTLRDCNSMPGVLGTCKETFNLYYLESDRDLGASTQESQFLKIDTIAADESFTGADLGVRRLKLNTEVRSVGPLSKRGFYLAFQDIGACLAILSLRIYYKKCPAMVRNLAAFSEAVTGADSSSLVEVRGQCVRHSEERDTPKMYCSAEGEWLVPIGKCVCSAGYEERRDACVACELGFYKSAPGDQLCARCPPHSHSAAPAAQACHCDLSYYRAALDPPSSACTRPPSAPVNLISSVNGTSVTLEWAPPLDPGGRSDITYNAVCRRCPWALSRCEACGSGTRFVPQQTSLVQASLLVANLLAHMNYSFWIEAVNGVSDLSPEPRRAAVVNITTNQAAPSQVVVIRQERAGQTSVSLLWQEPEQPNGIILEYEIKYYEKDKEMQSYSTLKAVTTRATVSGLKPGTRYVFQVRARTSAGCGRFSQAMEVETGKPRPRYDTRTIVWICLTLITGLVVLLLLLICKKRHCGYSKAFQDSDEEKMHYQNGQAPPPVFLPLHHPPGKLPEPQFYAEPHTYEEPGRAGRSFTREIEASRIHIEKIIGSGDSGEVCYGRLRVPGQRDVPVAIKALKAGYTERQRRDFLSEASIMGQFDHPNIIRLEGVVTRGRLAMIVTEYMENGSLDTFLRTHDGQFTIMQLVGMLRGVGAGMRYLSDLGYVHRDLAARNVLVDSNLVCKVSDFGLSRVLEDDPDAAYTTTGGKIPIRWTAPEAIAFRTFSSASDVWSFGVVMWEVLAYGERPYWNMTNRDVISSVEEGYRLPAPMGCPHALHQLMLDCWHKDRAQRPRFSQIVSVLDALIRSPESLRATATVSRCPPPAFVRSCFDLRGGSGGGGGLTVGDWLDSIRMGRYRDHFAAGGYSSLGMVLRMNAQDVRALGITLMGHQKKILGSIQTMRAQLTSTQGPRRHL", "UniProt Q9H2K8, sequence (whole entry, looked up)": "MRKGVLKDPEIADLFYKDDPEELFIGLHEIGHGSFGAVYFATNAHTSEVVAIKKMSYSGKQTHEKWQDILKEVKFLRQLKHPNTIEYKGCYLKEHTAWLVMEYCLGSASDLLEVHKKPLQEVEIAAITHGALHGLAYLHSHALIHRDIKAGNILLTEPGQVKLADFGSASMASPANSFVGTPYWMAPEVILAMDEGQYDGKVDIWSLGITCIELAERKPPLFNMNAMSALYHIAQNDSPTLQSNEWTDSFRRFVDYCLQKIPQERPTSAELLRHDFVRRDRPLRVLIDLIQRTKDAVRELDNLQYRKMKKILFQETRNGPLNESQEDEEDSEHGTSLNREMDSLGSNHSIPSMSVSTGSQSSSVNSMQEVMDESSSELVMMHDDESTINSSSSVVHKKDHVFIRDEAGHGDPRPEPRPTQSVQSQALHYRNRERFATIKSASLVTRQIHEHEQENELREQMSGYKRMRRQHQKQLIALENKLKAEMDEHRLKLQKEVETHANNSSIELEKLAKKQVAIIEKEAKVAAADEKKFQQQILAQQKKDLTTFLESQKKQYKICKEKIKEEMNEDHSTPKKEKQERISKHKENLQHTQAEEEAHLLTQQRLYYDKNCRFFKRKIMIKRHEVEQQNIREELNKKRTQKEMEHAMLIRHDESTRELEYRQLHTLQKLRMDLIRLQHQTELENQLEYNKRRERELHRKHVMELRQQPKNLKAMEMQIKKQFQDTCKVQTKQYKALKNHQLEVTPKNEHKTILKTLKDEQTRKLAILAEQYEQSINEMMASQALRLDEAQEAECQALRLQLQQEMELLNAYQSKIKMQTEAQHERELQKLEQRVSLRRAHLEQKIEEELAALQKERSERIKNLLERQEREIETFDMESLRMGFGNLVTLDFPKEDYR", "UniProt Q9Y5S2, sequence (whole entry, looked up)": "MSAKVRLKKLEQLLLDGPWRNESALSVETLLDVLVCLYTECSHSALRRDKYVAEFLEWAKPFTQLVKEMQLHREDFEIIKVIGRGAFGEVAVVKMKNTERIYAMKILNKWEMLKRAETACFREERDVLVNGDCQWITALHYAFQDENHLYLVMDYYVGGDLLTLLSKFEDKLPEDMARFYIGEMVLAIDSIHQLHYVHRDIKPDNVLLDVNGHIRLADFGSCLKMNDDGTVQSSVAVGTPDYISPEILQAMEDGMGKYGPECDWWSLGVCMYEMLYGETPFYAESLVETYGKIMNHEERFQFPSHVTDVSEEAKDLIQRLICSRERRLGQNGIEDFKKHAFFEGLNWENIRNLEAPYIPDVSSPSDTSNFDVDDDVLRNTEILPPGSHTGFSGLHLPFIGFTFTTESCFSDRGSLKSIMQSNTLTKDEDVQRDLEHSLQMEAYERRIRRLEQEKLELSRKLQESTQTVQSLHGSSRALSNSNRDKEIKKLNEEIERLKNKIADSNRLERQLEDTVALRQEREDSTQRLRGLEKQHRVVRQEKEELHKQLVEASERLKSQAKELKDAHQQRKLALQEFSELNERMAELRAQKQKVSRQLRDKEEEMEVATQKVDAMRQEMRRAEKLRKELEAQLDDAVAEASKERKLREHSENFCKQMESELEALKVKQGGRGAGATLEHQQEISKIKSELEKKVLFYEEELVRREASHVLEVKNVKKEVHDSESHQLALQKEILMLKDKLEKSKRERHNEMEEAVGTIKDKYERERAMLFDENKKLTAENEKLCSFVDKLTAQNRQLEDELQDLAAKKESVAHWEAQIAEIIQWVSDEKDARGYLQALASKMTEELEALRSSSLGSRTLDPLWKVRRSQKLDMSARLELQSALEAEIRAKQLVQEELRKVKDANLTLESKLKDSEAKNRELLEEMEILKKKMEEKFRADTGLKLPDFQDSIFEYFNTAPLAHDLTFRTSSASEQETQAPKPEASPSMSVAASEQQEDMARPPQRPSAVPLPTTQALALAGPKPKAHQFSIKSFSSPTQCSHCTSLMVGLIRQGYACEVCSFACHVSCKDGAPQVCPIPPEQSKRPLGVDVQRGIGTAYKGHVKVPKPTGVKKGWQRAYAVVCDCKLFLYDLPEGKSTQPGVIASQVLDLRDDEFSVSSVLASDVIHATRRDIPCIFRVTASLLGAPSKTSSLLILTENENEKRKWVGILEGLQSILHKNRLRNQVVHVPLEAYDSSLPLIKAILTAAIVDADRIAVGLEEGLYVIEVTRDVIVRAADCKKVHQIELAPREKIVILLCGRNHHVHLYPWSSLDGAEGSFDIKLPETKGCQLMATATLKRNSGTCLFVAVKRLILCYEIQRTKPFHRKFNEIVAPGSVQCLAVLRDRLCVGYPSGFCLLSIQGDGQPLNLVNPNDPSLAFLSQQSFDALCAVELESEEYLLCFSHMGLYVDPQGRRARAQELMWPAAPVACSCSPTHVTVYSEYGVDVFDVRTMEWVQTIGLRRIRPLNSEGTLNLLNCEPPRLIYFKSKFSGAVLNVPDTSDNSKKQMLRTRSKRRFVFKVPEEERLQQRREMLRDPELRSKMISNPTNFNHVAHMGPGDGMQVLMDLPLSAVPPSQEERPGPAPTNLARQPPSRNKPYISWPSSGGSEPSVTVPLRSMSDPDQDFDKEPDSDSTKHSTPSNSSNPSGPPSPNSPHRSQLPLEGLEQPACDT"}
{"data": "Set 1", "host": "human", "sample": "microsomes or S9", "concentration": "2 µM", "time": "0.5 h"}
{"Structure (SMILES)": "CCCc1c(C(=O)NC2CC2)nnn1-c1ccc(NC(=O)CC(F)(F)F)cc1", "remaining compound": "79.7%"}
{"Structure (SMILES)": "Cc1c(O)ccc2c(CSc3n[nH]c4nc5ccccc5n34)cc(=O)oc12", "remaining compound": "3.4%"}
{"Structure (SMILES)": "COC(=O)[C@@H](O)c1c(C)nc2[nH]c(C)c(C)c2c1Cl", "remaining compound": "36.6%"}
{"Structure (SMILES)": "Cc1cc(OC(Cc2ccc(Cl)cc2)c2ccc(Cl)cc2Cl)ncc1NC(=O)NC(C)(C)C (stereo not drawn)", "remaining compound": "49.9%"}
{"Structure (SMILES)": "CCC(Oc1ccccc1)C(=O)Nc1cccc2c1CCCC2 (stereo not drawn)", "remaining compound": "1.21%"}
{"Structure (SMILES)": "O=C(c1cc2cc(Br)c3ncccc3c2s1)N1CCN(c2ccccc2)CC1", "remaining compound": "70.7%"}
{"Structure (SMILES)": "Cc1ccc(S(=O)(=O)n2cc(Br)c3c(N4CCC(N5CCOCC5)CC4)ncnc32)cc1", "remaining compound": "18%"}
{"Structure (SMILES)": "COCCCNC(=O)C1CCCN(S(=O)(=O)c2ccccc2)CCC(=O)NCC1 (stereo not drawn)", "remaining compound": "96.4%"}
{"Structure (SMILES)": "Cc1ncc2c(c1-c1nn[nH]n1)-c1ccccc1CC2", "remaining compound": "77.3%"}
{"Structure (SMILES)": "Cc1nc2nc(C)c(Cc3cccc4ccccc34)c(O)n2n1", "remaining compound": "5.71%"}
{"data": "Set 2", "target": "Mitogen-activated protein kinase kinase kinase 11 (MAP3K11, Homo sapiens, UniProt Q16584)", "observed": "enzyme activity", "action": "inhibitor", "concentration": "0.5 µM", "baseline": "control", "UniProt Q16584, sequence (whole entry, looked up)": "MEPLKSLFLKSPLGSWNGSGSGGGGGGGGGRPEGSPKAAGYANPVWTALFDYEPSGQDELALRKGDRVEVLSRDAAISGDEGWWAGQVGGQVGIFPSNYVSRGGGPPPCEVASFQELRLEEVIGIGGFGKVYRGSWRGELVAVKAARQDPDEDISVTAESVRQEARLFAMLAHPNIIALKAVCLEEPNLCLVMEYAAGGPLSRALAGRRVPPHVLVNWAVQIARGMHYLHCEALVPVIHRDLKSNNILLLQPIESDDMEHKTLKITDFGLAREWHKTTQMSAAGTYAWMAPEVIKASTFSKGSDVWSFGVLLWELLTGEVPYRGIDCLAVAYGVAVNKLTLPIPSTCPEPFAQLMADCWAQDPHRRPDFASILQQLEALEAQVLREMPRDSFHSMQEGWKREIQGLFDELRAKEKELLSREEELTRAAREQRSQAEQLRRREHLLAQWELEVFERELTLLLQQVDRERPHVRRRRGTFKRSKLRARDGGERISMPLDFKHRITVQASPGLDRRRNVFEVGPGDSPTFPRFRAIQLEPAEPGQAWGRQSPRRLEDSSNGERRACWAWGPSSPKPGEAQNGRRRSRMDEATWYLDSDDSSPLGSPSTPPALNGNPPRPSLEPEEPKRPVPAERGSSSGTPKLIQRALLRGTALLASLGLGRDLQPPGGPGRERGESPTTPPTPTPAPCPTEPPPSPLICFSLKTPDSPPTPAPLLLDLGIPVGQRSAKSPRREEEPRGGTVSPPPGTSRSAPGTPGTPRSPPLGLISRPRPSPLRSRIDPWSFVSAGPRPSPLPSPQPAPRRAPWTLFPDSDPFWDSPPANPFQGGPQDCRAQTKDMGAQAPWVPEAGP"}
{"SMILES": "Nc1cccc(-c2cc3c(Oc4cccc(O)c4)ncnc3[nH]2)c1", "remaining activity": "52.4%"}
{"SMILES": "O=C(NC(NC(=S)Nc1ccc(F)c([N+](=O)[O-])c1)C(Cl)(Cl)Cl)C(c1ccccc1)c1ccccc1 (stereo not drawn)", "remaining activity": "102%"}
{"SMILES": "COc1cc2ncnc(Nc3ccc(O)c(Br)c3)c2cc1OC", "remaining activity": "83.7%"}
{"SMILES": "CCN(CC)CCNC(=O)c1c(C)[nH]c(/C=C2\\C(=O)Nc3ccc(F)cc32)c1C", "remaining activity": "68.4%"}
{"SMILES": "Cc1nc2cc3nc(-c4cccs4)cnc3cc2n1C", "remaining activity": "91.1%"}
{"SMILES": "O=C(Nc1cccc(Nc2nccc(Nc3cccc(C(F)(F)F)c3)n2)c1)C1CC1", "remaining activity": "89.5%"}
{"SMILES": "COc1cc2c(cc1OC)-c1[nH]nc(Nc3cccc(F)c3)c1C2", "remaining activity": "93.9%"}
{"SMILES": "CCN(CC)C(=O)c1ccc(Nc2nc(OCC3CCCCC3)c3[nH]cnc3n2)cc1", "remaining activity": "5.55%"}
{"SMILES": "N#Cc1c(NC(=O)c2cccc3ccccc23)sc2c1CCCC2", "remaining activity": "103%"}
{"SMILES": "c1ccc(-c2cnc(Nc3ccc(OCCN4CCCC4)cc3)s2)cc1", "remaining activity": "84.4%"}
{"SMILES": "O=c1cc(-c2cccc3c2Sc2ccccc2S3)oc(N2CCOCC2)c1", "remaining activity": "98.6%"}
{"SMILES": "Cc1cn(-c2cc(NC(=O)c3ccc(C)c(Nc4nccc(-c5cccnc5)n4)c3)cc(C(F)(F)F)c2)cn1", "remaining activity": "109%"}
{"SMILES": "N#C/C(=C\\c1ccc(O)c(O)c1)C(=O)NCc1ccccc1", "remaining activity": "97%"}
{"SMILES": "c1ccc(-c2[nH]ncc2-c2ccnc3ccccc23)nc1", "remaining activity": "96.5%"}
{"SMILES": "CN(C)C[C@H]1CCn2c(c(C3=C(c4cn(C)c5ccccc45)C(=O)NC3=O)c3ccccc32)C1", "remaining activity": "95.2%"}
{"SMILES": "O=C1c2ccccc2-c2n[nH]c3cccc1c23", "remaining activity": "56.9%"}
{"SMILES": "CCN(CC)CCNC(=O)c1c(C)[nH]c(/C=C2\\C(=O)Nc3ccc(Cl)cc32)c1C", "remaining activity": "21%"}
{"SMILES": "O=C1C(Cl)=C(N2C(=O)CCC2=O)C(=O)c2ccccc21", "remaining activity": "102%"}
{"SMILES": "CN([C@@H](Cc1ccc(OS(=O)(=O)c2cccc3cnccc23)cc1)C(=O)N1CCN(c2ccccc2)CC1)S(=O)(=O)c1cccc2cnccc12", "remaining activity": "105%"}
{"SMILES": "Ic1cccc(CSc2nnc(-c3ccncc3)o2)c1", "remaining activity": "99.6%"}
{"SMILES": "COc1cc2ncnc(Nc3cccc(Cl)c3)c2cc1OC", "remaining activity": "84.1%"}
{"SMILES": "Cc1cc2ncc(-c3ccccc3)nc2cc1C", "remaining activity": "97.3%"}
{"SMILES": "Cn1nc2c3c(cccc31)C(=O)c1ccccc1-2", "remaining activity": "97.2%"}
{"SMILES": "C[C@@H]1CCN(C(=O)CC#N)C[C@@H]1N(C)c1ncnc2[nH]ccc12", "remaining activity": "104%"}
{"SMILES": "CCOc1nc(NC(=O)Cc2cc(OC)ccc2OC)cc(N)c1C#N", "remaining activity": "98.8%"}
{"data": "Set 3", "target": "Calcium/calmodulin-dependent protein kinase type II subunit alpha (CAMK2A, Homo sapiens, UniProt Q9UQM7)", "observed": "enzyme activity", "action": "inhibitor", "concentration": "10 µM", "UniProt Q9UQM7, sequence (whole entry, looked up)": "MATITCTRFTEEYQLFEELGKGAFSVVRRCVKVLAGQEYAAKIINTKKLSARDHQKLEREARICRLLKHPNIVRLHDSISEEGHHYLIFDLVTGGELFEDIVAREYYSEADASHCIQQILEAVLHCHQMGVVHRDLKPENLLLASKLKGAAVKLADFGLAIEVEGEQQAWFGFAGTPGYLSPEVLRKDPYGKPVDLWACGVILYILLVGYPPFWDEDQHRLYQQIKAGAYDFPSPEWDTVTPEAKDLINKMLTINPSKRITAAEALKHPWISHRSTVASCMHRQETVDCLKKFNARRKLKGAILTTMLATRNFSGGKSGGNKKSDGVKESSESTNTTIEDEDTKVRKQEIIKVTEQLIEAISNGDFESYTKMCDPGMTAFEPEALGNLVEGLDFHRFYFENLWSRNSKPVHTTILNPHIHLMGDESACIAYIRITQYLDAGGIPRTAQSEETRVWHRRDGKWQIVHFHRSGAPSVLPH"}
{"SMILES": "C/C=C/c1cc(OC)c2c(c1)C(C)C(c1ccc(O)c(OC)c1)O2 (stereo not drawn)", "inhibition [%]": 26}
{"SMILES": "O=C(O)CCCCCCCCCCC(=O)O", "inhibition [%]": -8}
{"SMILES": "O=Cc1ccoc1", "inhibition [%]": 6}
{"SMILES": "CC(=O)c1ccccc1", "inhibition [%]": 20}
{"SMILES": "C[C@@H]1CC[C@@]2(OC1)O[C@H]1C[C@H]3[C@@H]4CC=C5C[C@@H](O)CC[C@]5(C)[C@H]4CC[C@]3(C)[C@H]1[C@@H]2C", "inhibition [%]": -41}
{"SMILES": "C[N+](C)(C)CCCCC(=O)[O-]", "inhibition [%]": -6}
{"SMILES": "C[C@H](CC[C@@]1(O)O[C@H]2C[C@H]3[C@@H]4CC=C5C[C@@H](O[C@@H]6O[C@H](CO)[C@@H](O)[C@H](O[C@@H]7O[C@H](CO)[C@@H](O)[C@H](O)[C@H]7O)[C@H]6O[C@@H]6O[C@@H](C)[C@H](O)[C@@H](O)[C@H]6O)CC[C@]5(C)[C@H]4CC[C@]3(C)[C@H]2[C@@H]1C)CO[C@@H]1O[C@H](CO)[C@@H](O)[C@H](O)[C@H]1O", "inhibition [%]": -14}
{"SMILES": "CN(C)CCOC1=Cc2ccccc2Sc2ccc(Cl)cc21", "inhibition [%]": -7}
{"SMILES": "C=C1C[C@@]23CC[C@H]4[C@@](C)(CCC[C@@]4(C)C(=O)O)[C@@H]2CC[C@]1(O[C@@H]1O[C@H](CO)[C@@H](O)[C@H](O)[C@H]1O[C@@H]1O[C@H](CO)[C@@H](O)[C@H](O)[C@H]1O)C3", "inhibition [%]": -20}
{"SMILES": "CNC(=O)c1c(I)c(NC(C)=O)c(I)c(C(=O)O)c1I", "inhibition [%]": -1}
{"SMILES": "O=C(O)CCc1ccc(O)cc1O", "inhibition [%]": 28}
{"SMILES": "CC[N+](C)(C)c1cccc(O)c1", "inhibition [%]": -9}
{"data": "Set 4", "Structure (SMILES)": "N#Cc1ccc(Nc2ccc3[nH]c(=O)[nH]c3c2)c(Cl)c1", "observed": "cell-free assay", "method": "competition with immobilised ligand", "concentration": "1 µM"}
{"target": "Ephrin type-A receptor 8 (EPHA8, Homo sapiens, UniProt P29322)", "remaining binding": "100%"}
{"target": "Serine/threonine-protein kinase SBK1 (SBK1, Homo sapiens, UniProt Q52WX2)", "remaining binding": "93%"}
{"target": "Ribosomal protein S6 kinase alpha-2, N-terminal kinase domain (RPS6KA2, Homo sapiens, UniProt Q15349)", "remaining binding": "100%"}
{"target": "Myotonin-protein kinase (DMPK, Homo sapiens, UniProt Q09013)", "remaining binding": "81%"}
{"target": "Serine/threonine-protein kinase MRCK beta (CDC42BPB, Homo sapiens, UniProt Q9Y5S2)", "remaining binding": "100%"}
{"target": "Serine/threonine-protein kinase Nek5 (NEK5, Homo sapiens, UniProt Q6P3R8)", "remaining binding": "100%"}
{"target": "Tyrosine-protein kinase HCK (HCK, Homo sapiens, UniProt P08631)", "remaining binding": "100%"}
{"target": "Myosin light chain kinase 2, skeletal/cardiac muscle (MYLK2, Homo sapiens, UniProt Q9H1R3)", "remaining binding": "99%"}
{"target": "Receptor-type tyrosine-protein kinase FLT3 (FLT3, Homo sapiens, UniProt P36888, D835V/ITD)", "remaining binding": "100%"}
{"target": "Myosin light chain kinase family member 4 (MYLK4, Homo sapiens, UniProt Q86YV6)", "remaining binding": "100%"}
{"target": "Serine/threonine-protein kinase TAO3 (TAOK3, Homo sapiens, UniProt Q9H2K8)", "remaining binding": "100%"}
{"target": "Serine/threonine-protein kinase STK11 (STK11, Homo sapiens, UniProt Q15831)", "remaining binding": "100%"}
{"target": "MAP kinase-interacting serine/threonine-protein kinase 2 (MKNK2, Homo sapiens, UniProt Q9HBH9)", "remaining binding": "100%"}
{"note": "For quick reference, copied from above (set 2):"}
{"SMILES": "N#Cc1c(NC(=O)c2cccc3ccccc23)sc2c1CCCC2", "remaining activity": "103%"}
{"SMILES": "C[C@@H]1CCN(C(=O)CC#N)C[C@@H]1N(C)c1ncnc2[nH]ccc12", "remaining activity": "104%"}
{"SMILES": "O=C(NC(NC(=S)Nc1ccc(F)c([N+](=O)[O-])c1)C(Cl)(Cl)Cl)C(c1ccccc1)c1ccccc1 (stereo not drawn)", "remaining activity": "102%"}
